Results of several laboratories.
Each line is one published result; not all experiments were run side by side. Values joined by “and” are separate records of one study, mostly repeats; a detail may differ. ± marks the error that the study gave.
Grik2: Glutamate receptor ionotropic, kainate 2 (Grik2, Rattus norvegicus, UniProt P42260)
Chain of UniProt P42260 (whole entry, looked up): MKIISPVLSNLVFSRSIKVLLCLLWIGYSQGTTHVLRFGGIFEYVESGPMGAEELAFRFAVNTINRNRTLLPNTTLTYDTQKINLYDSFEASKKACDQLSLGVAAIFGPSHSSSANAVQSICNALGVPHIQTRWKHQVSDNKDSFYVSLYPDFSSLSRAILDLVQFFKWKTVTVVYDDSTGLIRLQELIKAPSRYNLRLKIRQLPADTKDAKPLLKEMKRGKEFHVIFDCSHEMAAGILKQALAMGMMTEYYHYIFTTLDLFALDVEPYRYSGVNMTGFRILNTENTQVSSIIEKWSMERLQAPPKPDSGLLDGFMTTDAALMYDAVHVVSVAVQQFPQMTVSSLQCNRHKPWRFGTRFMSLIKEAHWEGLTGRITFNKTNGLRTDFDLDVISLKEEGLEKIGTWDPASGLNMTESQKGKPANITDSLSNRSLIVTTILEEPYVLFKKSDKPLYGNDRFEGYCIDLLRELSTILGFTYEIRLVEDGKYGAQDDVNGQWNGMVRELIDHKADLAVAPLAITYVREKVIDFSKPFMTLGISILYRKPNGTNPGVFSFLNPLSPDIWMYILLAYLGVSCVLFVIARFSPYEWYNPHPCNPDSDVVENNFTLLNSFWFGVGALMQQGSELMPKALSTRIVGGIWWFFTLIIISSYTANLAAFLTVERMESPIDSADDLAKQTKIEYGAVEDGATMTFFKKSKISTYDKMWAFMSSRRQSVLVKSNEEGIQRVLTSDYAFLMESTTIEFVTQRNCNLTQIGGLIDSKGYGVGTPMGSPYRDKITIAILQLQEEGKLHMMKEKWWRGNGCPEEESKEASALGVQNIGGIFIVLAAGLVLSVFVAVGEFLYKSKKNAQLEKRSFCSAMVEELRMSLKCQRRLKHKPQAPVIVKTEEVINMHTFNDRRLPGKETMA
Kir3.1/Kir3.2: Kir3.1/Kir3.2 (Homo sapiens, UniProt P48051+P48549)
Chain of UniProt P48051 (whole entry, looked up): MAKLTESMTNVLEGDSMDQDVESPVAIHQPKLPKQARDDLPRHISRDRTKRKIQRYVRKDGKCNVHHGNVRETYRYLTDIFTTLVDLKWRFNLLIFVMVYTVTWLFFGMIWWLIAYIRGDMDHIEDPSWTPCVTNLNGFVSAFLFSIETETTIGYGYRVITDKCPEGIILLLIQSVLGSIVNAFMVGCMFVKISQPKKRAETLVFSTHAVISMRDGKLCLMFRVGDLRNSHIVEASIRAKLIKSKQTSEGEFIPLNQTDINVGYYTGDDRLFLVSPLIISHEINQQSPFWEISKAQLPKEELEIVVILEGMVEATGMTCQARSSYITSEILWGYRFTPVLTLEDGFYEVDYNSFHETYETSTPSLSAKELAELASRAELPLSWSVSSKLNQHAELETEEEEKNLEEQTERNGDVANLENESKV
Chain of UniProt P48549 (whole entry, looked up): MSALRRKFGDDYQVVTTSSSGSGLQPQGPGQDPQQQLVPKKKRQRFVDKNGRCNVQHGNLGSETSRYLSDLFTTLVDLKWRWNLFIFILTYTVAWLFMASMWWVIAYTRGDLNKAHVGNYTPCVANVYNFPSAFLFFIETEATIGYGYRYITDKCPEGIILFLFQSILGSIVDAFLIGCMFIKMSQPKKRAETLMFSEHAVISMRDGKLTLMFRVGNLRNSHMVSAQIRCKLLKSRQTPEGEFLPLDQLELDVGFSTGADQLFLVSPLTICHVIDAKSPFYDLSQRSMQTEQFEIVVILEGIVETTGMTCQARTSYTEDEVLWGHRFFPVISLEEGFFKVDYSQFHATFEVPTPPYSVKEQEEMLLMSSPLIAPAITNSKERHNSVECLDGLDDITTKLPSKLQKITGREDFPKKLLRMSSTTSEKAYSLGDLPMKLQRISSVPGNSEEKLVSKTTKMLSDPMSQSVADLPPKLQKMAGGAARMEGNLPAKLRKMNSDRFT
BACE1: Beta-secretase 1 (BACE1, Homo sapiens, UniProt P56817)
Chain of UniProt P56817 (whole entry, looked up): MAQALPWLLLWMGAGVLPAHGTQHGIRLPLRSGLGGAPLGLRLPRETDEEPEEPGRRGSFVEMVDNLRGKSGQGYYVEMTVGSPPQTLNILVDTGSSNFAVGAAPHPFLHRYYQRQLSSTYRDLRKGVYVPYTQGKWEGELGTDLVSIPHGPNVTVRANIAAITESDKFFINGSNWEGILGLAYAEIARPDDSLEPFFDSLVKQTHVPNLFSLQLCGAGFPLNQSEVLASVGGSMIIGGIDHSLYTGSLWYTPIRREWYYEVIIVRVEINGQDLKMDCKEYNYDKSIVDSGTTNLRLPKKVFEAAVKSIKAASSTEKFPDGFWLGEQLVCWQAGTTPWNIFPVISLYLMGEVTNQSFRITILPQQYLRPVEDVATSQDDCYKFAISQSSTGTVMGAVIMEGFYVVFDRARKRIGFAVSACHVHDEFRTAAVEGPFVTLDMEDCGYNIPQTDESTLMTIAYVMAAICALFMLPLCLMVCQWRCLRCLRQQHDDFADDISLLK
Ephx2: Bifunctional epoxide hydrolase 2 (Ephx2, Mus musculus, UniProt P34914)
Chain of UniProt P34914 (whole entry, looked up): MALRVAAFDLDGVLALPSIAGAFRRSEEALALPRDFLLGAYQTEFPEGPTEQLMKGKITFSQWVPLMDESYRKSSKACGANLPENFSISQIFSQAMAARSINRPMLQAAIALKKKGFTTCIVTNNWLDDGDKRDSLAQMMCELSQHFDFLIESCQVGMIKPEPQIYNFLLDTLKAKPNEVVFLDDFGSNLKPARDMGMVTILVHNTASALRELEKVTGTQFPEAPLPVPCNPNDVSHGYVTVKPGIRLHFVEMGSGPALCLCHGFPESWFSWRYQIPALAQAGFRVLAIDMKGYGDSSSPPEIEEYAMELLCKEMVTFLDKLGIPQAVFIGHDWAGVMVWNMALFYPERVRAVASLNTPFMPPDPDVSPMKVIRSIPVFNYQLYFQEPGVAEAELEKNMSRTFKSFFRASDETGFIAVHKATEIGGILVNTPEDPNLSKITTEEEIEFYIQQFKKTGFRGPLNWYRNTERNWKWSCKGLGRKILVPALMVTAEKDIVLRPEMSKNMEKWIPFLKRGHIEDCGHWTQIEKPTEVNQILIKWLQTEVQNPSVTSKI
EGLN1: Egl nine homolog 1 (EGLN1, Homo sapiens, UniProt Q9GZT9)
Chain of UniProt Q9GZT9 (whole entry, looked up): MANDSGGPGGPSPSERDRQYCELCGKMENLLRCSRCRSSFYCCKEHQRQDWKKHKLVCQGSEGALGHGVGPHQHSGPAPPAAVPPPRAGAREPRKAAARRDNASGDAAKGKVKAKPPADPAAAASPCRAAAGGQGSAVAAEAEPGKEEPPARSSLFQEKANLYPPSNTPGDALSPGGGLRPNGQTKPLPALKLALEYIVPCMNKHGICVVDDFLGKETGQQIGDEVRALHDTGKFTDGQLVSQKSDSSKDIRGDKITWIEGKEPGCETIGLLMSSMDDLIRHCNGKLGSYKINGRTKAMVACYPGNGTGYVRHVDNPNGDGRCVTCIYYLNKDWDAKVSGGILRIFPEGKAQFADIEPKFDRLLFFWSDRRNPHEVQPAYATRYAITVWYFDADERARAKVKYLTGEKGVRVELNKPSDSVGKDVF
ESR2: Estrogen receptor beta (ESR2, Homo sapiens, UniProt Q92731)
Chain of UniProt P31391 (whole entry, looked up): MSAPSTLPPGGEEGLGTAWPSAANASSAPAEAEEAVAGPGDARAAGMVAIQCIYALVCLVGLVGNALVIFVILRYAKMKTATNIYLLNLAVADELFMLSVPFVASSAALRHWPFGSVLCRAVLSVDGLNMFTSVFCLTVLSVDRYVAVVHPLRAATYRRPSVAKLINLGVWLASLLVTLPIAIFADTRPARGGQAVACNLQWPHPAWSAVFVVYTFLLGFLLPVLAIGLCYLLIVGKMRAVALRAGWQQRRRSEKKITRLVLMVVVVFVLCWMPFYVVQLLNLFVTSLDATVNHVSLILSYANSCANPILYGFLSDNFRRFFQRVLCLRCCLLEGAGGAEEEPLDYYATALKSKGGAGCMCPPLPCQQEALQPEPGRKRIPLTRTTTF
Chain of UniProt Q92731 (whole entry, looked up): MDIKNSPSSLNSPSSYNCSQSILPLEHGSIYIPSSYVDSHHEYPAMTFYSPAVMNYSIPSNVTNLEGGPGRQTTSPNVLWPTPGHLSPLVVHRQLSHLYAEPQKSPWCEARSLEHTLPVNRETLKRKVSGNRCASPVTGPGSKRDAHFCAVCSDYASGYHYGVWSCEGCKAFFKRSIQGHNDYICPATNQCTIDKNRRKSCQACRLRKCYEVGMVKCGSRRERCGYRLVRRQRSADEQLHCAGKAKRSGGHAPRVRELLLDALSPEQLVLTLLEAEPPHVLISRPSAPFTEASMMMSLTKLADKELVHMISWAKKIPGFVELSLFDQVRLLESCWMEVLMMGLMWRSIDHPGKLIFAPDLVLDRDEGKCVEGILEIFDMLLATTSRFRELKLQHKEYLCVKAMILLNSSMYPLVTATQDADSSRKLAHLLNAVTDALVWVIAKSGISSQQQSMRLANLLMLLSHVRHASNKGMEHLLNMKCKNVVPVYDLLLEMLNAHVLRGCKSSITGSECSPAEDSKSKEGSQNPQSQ
Chain of UniProt P28336 (whole entry, looked up): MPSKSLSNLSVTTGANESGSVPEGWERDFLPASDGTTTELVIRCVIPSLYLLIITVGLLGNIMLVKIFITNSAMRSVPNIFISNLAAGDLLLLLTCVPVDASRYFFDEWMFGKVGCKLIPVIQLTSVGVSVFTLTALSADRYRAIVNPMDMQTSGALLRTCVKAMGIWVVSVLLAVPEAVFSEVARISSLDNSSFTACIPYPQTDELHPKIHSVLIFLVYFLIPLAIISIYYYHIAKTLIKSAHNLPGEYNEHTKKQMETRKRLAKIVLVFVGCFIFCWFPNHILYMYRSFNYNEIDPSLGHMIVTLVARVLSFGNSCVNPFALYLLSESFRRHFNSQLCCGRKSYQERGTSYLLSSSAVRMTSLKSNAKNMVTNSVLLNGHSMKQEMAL
Chain of UniProt P08246 (whole entry, looked up): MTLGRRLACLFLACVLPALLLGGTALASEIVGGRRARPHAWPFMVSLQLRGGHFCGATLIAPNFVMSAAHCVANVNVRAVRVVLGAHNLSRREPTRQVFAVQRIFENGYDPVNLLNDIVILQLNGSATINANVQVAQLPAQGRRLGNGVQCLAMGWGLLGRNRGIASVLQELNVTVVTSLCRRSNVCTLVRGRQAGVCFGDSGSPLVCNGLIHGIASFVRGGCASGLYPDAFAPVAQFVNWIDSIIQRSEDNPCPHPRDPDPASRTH

SMILES | target | test | system | setting | IC50
COc1cccc(-n2c(/C=C/c3ccc([N+](=O)[O-])cc3)nc3ccccc3c2=O)c1 | Grik2 | ion current, inhibitor, two-electrode voltage clamp | Xenopus oocytes | concanavalin A pretreatment, added: 100 µM glutamate | > 300 µM
CSCC[C@H](NC(=O)[C@@H](Cc1c[nH]c2ccccc12)NC(=O)[C@@H](Cc1c[nH]c2ccccc12)NC(=O)[C@H](Cc1ccccc1)NC(=O)[C@@H](Cc1c[nH]c2ccccc12)NC(=O)[C@H](CCC(N)=O)NC(=O)[C@H](CCC(N)=O)NC(=O)[C@H]1CCCN1)C(N)=O | Neuromedin-B receptor (NMBR, Homo sapiens, UniProt P28336) | inositol phosphate generation, antagonist | Balb 3T3 expressing NMBR | added: neuromedin B 1 nM | > 10 µM
[Cl][Yb]([Cl])[Cl] | Collagenase 3 (MMP13, Homo sapiens, UniProt P45452) | enzyme activity, inhibitor |  | pH 7.5, with preincubation | 12.7 µM
O=c1cc(N2CCOCC2)oc2c(OCc3ccccc3)cccc12 | Phosphatidylinositol 4,5-bisphosphate 3-kinase catalytic subunit alpha isoform (PIK3CA, Homo sapiens, UniProt P42336) | enzyme activity, inhibitor |  |  | 0.77 µM
CC1COCc2cc3c(cc21)C(C)(C)C(C)C3(C)C (centres unmarked) | Liver carboxylesterase (Sus scrofa, UniProt Q29550) | enzyme activity, inhibitor |  | with preincubation | 90 µM
O=c1oc2c(O)c(O)cc3c(=O)oc4c(O)c(O)cc1c4c23 | Ribonuclease L (Sus scrofa, UniProt A5H025) | RNase L activity, inhibitor |  |  | 0.07308 ± 0.00016 µM
N#Cc1ccc(F)c(OCC(O)Cn2c(=N)n(Cc3ccccc3)c3ccccc32)c1 (centres unmarked) | Kir3.1/Kir3.2 | ion flux |  |  | 1.4 µM
CC(C)NCc1ccc(C[C@@H]2NC(=O)[C@@H](N(C)C(=O)c3ccc4ccccc4c3)NC(=O)[C@H](Cc3ccccc3)NC(=O)[C@@H](N)CSSC[C@@H](C(N)=O)NC(=O)[C@H](Cc3ccc(O)cc3)NC2=O)cc1 | Somatostatin receptor type 4 (SSTR4, Homo sapiens, UniProt P31391) | ligand displacement, radioligand |  | cell membranes | 0.695 µM and 0.481 µM
COC(=O)CC[C@@H](C)[C@H]1CC[C@H]2[C@@H]3CC[C@@H]4C[C@H](OC(=O)CCCCCC(=O)O)CC[C@]4(C)[C@H]3CC[C@]12C | human 20S proteasome | chymotrypsin-like activity, inhibitor |  | added: PA28 | > 10 µM
CCCC[C@H](NC(=O)CNC(=O)[C@H](CCCCN)NC(=O)[C@@H](NC(=O)[C@H](CCC(=O)O)NC(=O)CNC(=O)[C@H](CCCNC(=N)N)NC(=O)[C@@H]1CCCN1C(=O)[C@H](CCCCN)NC(=O)[C@@H](N)CCCCN)[C@@H](C)O)C(=O)N[C@H](C(=O)N[C@@H](Cc1ccc(O)cc1)C(N)=O)[C@@H](C)CC | human 20S proteasome (latent) | trypsin-like activity, inhibitor |  | 10 min preincubation, pH 8.0, 37 °C, added: Boc-LRR-MCA | 0.35 µM
O=C(NO)c1ccc(Cn2c(C(F)(F)F)nc3ccccc32)cc1 | Histone deacetylase 1 (HDAC1, Homo sapiens, UniProt Q13547) | enzyme activity, inhibitor |  |  | 6.34 µM
O=C(O)c1ccccn1 | mushroom tyrosinase | monophenolase activity, inhibitor |  | pH 6.8, 20 °C, added: p-coumaric acid substrate | 3540 µM
O=C(CCc1ccc(O)c(O)c1)NCCCCNCCCNC(=O)CCc1ccc(O)c(O)c1 | Muscarinic acetylcholine receptor M1 (CHRM1, Homo sapiens, UniProt P11229) | calcium signal, antagonist, fluorescence |  |  | 2.9 µM
OC1CC2CCC(C1)N2CCCN1c2ccccc2Sc2ccc(Cl)cc21 (centres unmarked) | BACE1 | inhibitor, FRET |  | pH 4.5 | 127 ± 38 µM
CCCC(=O)N[C@@H](CCC(N)=O)C(=O)N[C@@H]1C(=O)N[C@@H](CCc2ccc(O)cc2)C(=O)N[C@H]2CC[C@@H](O)N(C2=O)[C@@H](Cc2ccccc2)C(=O)N(C)[C@@H](Cc2ccccc2)C(=O)N[C@@H](C(C)C)C(=O)O[C@@H]1C | Neutrophil elastase (ELANE, Homo sapiens, UniProt P08246) | enzyme activity, inhibitor, fluorescence |  |  | 0.83 µM
CC(=O)CC(c1ccccc1)c1c(O)c2ccccc2oc1=O (centres unmarked) | Vitamin K epoxide reductase complex subunit 1-like protein 1 (Homo sapiens, UniProt Q8N0U8) | enzyme activity, inhibitor, fluorometric |  | DDM detergent, added: GSH reductant, 250 nM enzyme | > 0.25 µM
O=C(CCCCCCNC(=O)[C@H]1CCCN(C(=O)c2ccc(NC(=O)Nc3ccc(F)c(C(F)(F)F)c3)c(F)c2)C1)NO | Ephx2 | enzyme activity, inhibitor, fluorescence |  |  | 0.0089 µM
N=c1n(Cc2ccccc2)c2ccccc2n1CC(O)COc1ccc(Cl)cc1Cl (centres unmarked) | Kir3.1/Kir3.2 | ion flux |  |  | 3.2 µM
O=c1[nH]c2ccccc2n1C1CCN(CCCC(c2ccc(F)cc2)c2ccc(F)cc2)CC1 | Ubiquitin carboxyl-terminal hydrolase 8 (USP8, Homo sapiens, UniProt P40818) |  |  |  | > 114 µM
Cc1c(O)c(=O)ccn1C | EGLN1 | ODDD peptide hydroxylation, inhibitor, MALDI-TOF MS |  | pH 7.00, 37.0 °C, added: 2-oxoglutarate 10 µM | 40 µM
CCCCCCCCCCCCCCCC(=O)OCc1cc(=O)c(OC(=O)CCCCCCCCCCCCCCC)co1 | mushroom tyrosinase | inhibitor |  | added: L-tyrosine | > 2000 µM

SMILES | target | test | system | setting | IC50
C[C@@H]1O[C@](O)(CO)[C@@H](O)[C@H](O)[C@H]1O | 3-dehydroquinate synthase, chloroplastic (DHQS, Arabidopsis thaliana, UniProt Q8VYV7) | enzyme activity, inhibitor, malachite green phosphate release |  | 29 °C | 465 µM
COc1ccc2c(CC(=O)NCCCC[C@H](N)C(=O)N[C@@H](CCC(=O)O)C(=O)N[C@@H](Cc3ccc(CS(=O)(=O)O)cc3)C(=O)N[C@@H](CCC(=O)O)C(=O)N[C@@H](Cc3ccc(CS(=O)(=O)O)cc3)C(=O)N[C@@H](CC(C)C)C(=O)N[C@@H](CC(=O)O)C(=O)N[C@@H](Cc3ccc(CS(=O)(=O)O)cc3)C(=O)N[C@@H](CC(=O)O)C(=O)N[C@@H](Cc3ccccc3)C(=O)N[C@@H](CC(C)C)C(=O)N3CCC[C@H]3C(=O)N[C@@H](CCC(=O)O)C(=O)N[C@H](C(=O)N[C@@H](CCC(=O)O)C(=O)N3CCC[C@H]3C(=O)N[C@@H](CC(C)C)C(=O)O)[C@@H](C)O[C@H]3O[C@H](CO[C@@H]4O[C@H](CO)[C@@H](O[C@@H]5O[C@H](CO)[C@H](O)[C@H](O[C@]6(C(=O)O)C[C@H](O)[C@@H](NC(C)=O)[C@H]([C@H](O)[C@H](O)CO)O6)[C@H]5O)[C@H](O[C@@H]5O[C@@H](C)[C@@H](O)[C@@H](O)[C@@H]5O)[C@H]4NC(C)=O)[C@H](O)[C@H](O[C@@H]4O[C@H](CO)[C@H](O)[C@H](O)[C@H]4O)[C@H]3NC(C)=O)cc(=O)oc2c1 | P-selectin (Mus musculus, UniProt Q01102) | chimera binding to monocytes, inhibitor, flow cytometry | mouse monocytes | added: P-selectin Fc chimera 2 µg/mL | ~28 µM
CN(C)c1cccc2c(S(=O)(=O)NCCCCCC(=O)NCCC3CCN(CCOc4ccc(C(=O)c5c(-c6ccc(O)cc6)sc6cc(O)ccc56)cc4)CC3)cccc12 | ESR2 | ligand displacement, radioligand |  |  | 0.0492 µM
Clc1ccc2c(c1)N(CCCN1CCCC13CCCCC3)c1ccccc1S2 | BACE1 | inhibitor, FRET |  | pH 4.5 | 228 ± 18 µM
CSc1nnc2[nH]nc(C)c2n1 | deoD (Escherichia coli, UniProt P0ABP8) | enzyme activity, inhibitor |  |  | ~40 µM
CC12CC3CC(C)(C1)CC(Nc1c(Nc4ccc(C(=O)N5CCC[C@H](C(=O)NCCCC(=O)NO)C5)cc4F)c(=O)c1=O)(C3)C2 | Ephx2 | enzyme activity, inhibitor, fluorescence |  |  | 21.3 µM
CN(C1CN(C(=O)OC(C(F)(F)F)C(F)(F)F)C1)C(c1ccc(F)cc1)c1ccc(F)cc1 | Monoacylglycerol lipase ABHD6 (ABHD6, Homo sapiens, UniProt Q9BV23) | enzyme activity, inhibitor, fluorescence |  |  | 0.283 µM
Cc1ccc(S(=O)(=O)N[C@@H](CC(=O)NC(C)(C)C)C(=O)N[C@@H](C)CC(=O)NCc2cccc3ccccc23)cc1 | Proteasome component C5/PSMB8 (Homo sapiens, UniProt P20618+P28062) | chymotrypsin-like activity, inhibitor |  | added: ac-ANW-AMC | 0.0055 ± 0.001 µM
CC(C)C[C@H](NC(=O)[C@H](Cc1ccccc1)NC(=O)c1cnccn1)B(O)O | Proteasome subunits (Trypanosoma cruzi, UniProt Q4CU77+Q4D8U7) | trypsin-like activity, inhibitor |  | wild-type proteasome | 1.7 ± 0.088 µM
O=S(=O)(Nc1ccccc1)C1CC2OC1C(c1ccc(O)cc1)=C2c1ccc(O)cc1 (centres unmarked) | ESR2 | reporter gene, antagonist, luciferase |  |  | 0.37 µM
OCCN(CCO)c1nc(N2CCCCCCC2)c2nc(N(CCO)CCO)nc(N3CCCCCCC3)c2n1 | Equilibrative nucleoside transporter 4 (SLC29A4, Homo sapiens, UniProt Q7RTT9) | adenosine uptake | PK-15 expressing ENT4 | 2 min, pH 6.0, added: [3H]adenosine 0.2 µM | 0.404 µM
NCCOB(c1ccccc1)c1ccccc1 | Transient receptor potential cation channel subfamily M member 7 (TRPM7, Homo sapiens, UniProt Q96QT4) | ion current, inhibitor, whole-cell patch clamp |  | Mg2+-free internal solution | 32.1 ± 0.1 µM
O=C(O)CC(O)(CC(=O)O)C(=O)O | mushroom tyrosinase | enzyme activity, inhibitor |  | 2 min, added: L-DOPA | 9380 ± 60 µg/mL
COc1cc(/C=C/C(=O)N2CCC=CC2=O)cc(OC)c1OC | Signal transducer and activator of transcription 3 (STAT3, Homo sapiens, UniProt P40763) | protein-protein interaction, inhibitor, SPR |  |  | 1.5 µM
CC1CCN(CC(=O)N2c3ccccc3Sc3cc4ccccc4cc32)CC1 | BACE1 | inhibitor, FRET |  | pH 4.5 | 286 ± 35 µM
CNCCC[C@@]1(c2ccc(F)cc2)OCc2cc(C#N)ccc21 | Sodium-dependent serotonin transporter (Slc6a4, Mus musculus, UniProt Q60857, I172M) |  |  |  | 1.6 µM
O=C1NC2=C(C(=O)N(Cc3ccc(Cl)cc3)C2)C(c2ccc(O)cc2)N1 (centres unmarked) | Intestinal-type alkaline phosphatase (ALPI, Bos taurus, UniProt P19111) | enzyme activity, inhibitor, absorbance |  | pH 9.5 | 5.36 µM
O=C(O[C@@H]1Cc2c(O)cc(O)cc2O[C@@H]1c1cc(O)c(O)c(O)c1-c1c([C@H]2Oc3cc(O)cc(O)c3C[C@H]2OC(=O)c2cc(O)c(O)c(O)c2)cc(O)c(O)c1O)c1cc(O)c(O)c(O)c1 | mRNA triphosphatase Cet1 (Trypanosoma brucei brucei, UniProt Q582T2) | enzyme activity, Transcreener ADP fluorescence polarization |  | 3 h, added: 50 µM ATP | 0.03 µM
O=C(O)CCCC(=O)NNC(=O)c1cnc2ccccc2c1 | EGLN1 | inhibitor, AlphaScreen |  | bimodal curve, rough estimate, added: 2 µM 2-oxoglutarate | > 300 µM
O=C(O)c1ccc(-n2c(/C=C/c3cccc([N+](=O)[O-])c3)nc3ccccc3c2=O)cc1 | Grik2 | ion current, inhibitor, two-electrode voltage clamp | Xenopus oocytes | concanavalin A pretreatment, added: 100 µM glutamate | > 300 µM

For quick reference, copied from above:
SMILES | target | test | system | setting | IC50
NCCOB(c1ccccc1)c1ccccc1 | Transient receptor potential cation channel subfamily M member 7 (TRPM7, Homo sapiens, UniProt Q96QT4) | ion current, inhibitor, whole-cell patch clamp |  | Mg2+-free internal solution | 32.1 ± 0.1 µM
N=c1n(Cc2ccccc2)c2ccccc2n1CC(O)COc1ccc(Cl)cc1Cl (centres unmarked) | Kir3.1/Kir3.2 | ion flux |  |  | 3.2 µM
O=c1[nH]c2ccccc2n1C1CCN(CCCC(c2ccc(F)cc2)c2ccc(F)cc2)CC1 | Ubiquitin carboxyl-terminal hydrolase 8 (USP8, Homo sapiens, UniProt P40818) |  |  |  | > 114 µM
O=C(NO)c1ccc(Cn2c(C(F)(F)F)nc3ccccc32)cc1 | Histone deacetylase 1 (HDAC1, Homo sapiens, UniProt Q13547) | enzyme activity, inhibitor |  |  | 6.34 µM
C[C@@H]1O[C@](O)(CO)[C@@H](O)[C@H](O)[C@H]1O | 3-dehydroquinate synthase, chloroplastic (DHQS, Arabidopsis thaliana, UniProt Q8VYV7) | enzyme activity, inhibitor, malachite green phosphate release |  | 29 °C | 465 µM
